Measurements from different studies.
Lines come from different studies, so protocols differ. ± marks the error that the study gave.
Organism: Plasmodium falciparum

Cn1nc2c(=O)n(C3CC3)ncc2c1[C@](N)(c1ccc(C(F)(F)F)c(Cl)c1)C1CC1  EC50 (parasite growth, parasite reduction ratio; 3D7): 3.3 nM
CCN1CCN(Cc2ccc(Nc3nc4ccc(Oc5ccnc(NC(=O)CCN(C)C)c5)cc4n3C)cc2C(F)(F)F)CC1  EC50 (parasite growth, SYBR Green I; Dd2; 72 h): 200 ± 100 nM
N#Cc1cnc(Nc2ccnc3ccc(-c4ccc(S(=O)(=O)N5CCOCC5)cc4)cc23)cn1  EC50 (parasite growth, SYBR Green; TM91C235): 600 nM
CCCC(=O)N1CCC[C@H](C(=O)NCc2nc(-c3ccccc3)cs2)C1  EC50 (SYBR Green growth; asexual blood-stage parasites, 3D7; 72 h): 4800 ± 1200 nM
COc1ccc(Nc2ccnc3ccc(-c4ccc(S(=O)(=O)N5CCOCC5)cc4)cc23)cc1C  EC50 (parasite growth, SYBR Green; W2): 1200 nM
CCOCC(=O)N1CCC[C@H](C(=O)NCc2nc(-c3ccc(C#N)cc3)cs2)C1  EC50 (72 h): 6.6 nM
CCOCC(=O)N1CCC[C@H](C(=O)NCc2nc(-c3ccc(-n4cccn4)cc3)cs2)C1  EC50 (SYBR Green growth; asexual blood-stage parasites, 3D7; 72 h): 8 ± 1.7 nM
O=S(=O)(c1ccc(-c2ccc3nccc(Nc4ccncc4)c3c2)cc1)N1CCOCC1  EC50 (parasite growth, SYBR Green; TM91C235): 540 nM
O=C(NCc1nc(-c2ccc(C(F)(F)F)cc2)cs1)[C@H]1CCCN(C(=O)COCCN2CCCC2)C1  EC50 (SYBR Green growth; asexual blood-stage parasites, 3D7; 72 h): 31 ± 15 nM
COc1ccc(CNc2nc(-c3ccc(C(=O)O)nc3)nc3sc4c(c23)CCCC4)cc1Cl  EC50 (parasite growth, LDH colorimetric; 3D7 Hyp1-Nluc; 72 h): 1340 nM
Cn1nc2c(=O)n(C3CC3)cnc2c1[C@@](O)(c1cnc(C(F)(F)F)c(Cl)c1)C(F)(F)F  EC50 (parasite growth; 3D7): 501 nM
O=S(=O)(c1ccc(-c2ccc3nccc(Nc4ccc5[nH]nnc5c4)c3c2)cc1)N1CCOCC1  EC50 (parasite growth, SYBR Green; D6): 180 nM
CCn1cc(-c2nc(C)no2)c(=O)c2cc(F)c(N3CCC(C)CC3)cc21  EC50 (parasite growth, [3H]hypoxanthine incorporation; RF12; 72 h): 5 nM
CC(C)NCCOCC(=O)N1CCC[C@H](C(=O)NCc2nc(-c3ccc(C(F)(F)F)cc3)cs2)C1  EC50 (SYBR Green growth; asexual blood-stage parasites, 3D7; 72 h): 57 ± 16 nM
CCn1cc(Cl)c2c(Cc3ccc(N4CCOCC4)nc3)n(C)nc2c1=O  EC50 (parasite growth; 3D7): 398 nM
O=[N+]([O-])c1ccc(Nc2ccnc3ccc(-c4ccc(S(=O)(=O)N5CCOCC5)cc4)cc23)cn1  EC50 (parasite growth, SYBR Green; D6): 390 nM
CCN(c1ccc(C)cc1)c1ccc(NC(=O)CN(C)c2ccccc2N2CCCC2=O)cn1  EC50 (schizont egress, nanoluciferase release; 3D7 NanoLuc; 4 h): > 10000 nM
Cc1cc(Nc2ccc(S(F)(F)(F)(F)F)cc2)n2nc(C(C)(F)F)nc2n1  EC50 (parasite growth): 9.5 nM
CCOCC(=O)N1CCC[C@H](C(=O)NCc2nc(-c3ccc(NCCCN)nc3)cs2)C1  EC50 (SYBR Green growth; asexual blood-stage parasites, 3D7; 72 h): 310 ± 110 nM
Cc1cnnc(Nc2ccnc3ccc(-c4ccc(S(=O)(=O)N5CCOCC5)cc4)cc23)c1  EC50 (parasite growth, SYBR Green; TM91C235): 1600 nM
CCOCC(=O)N1CC[C@H](C)[C@H](C(=O)NCc2nc(-c3ccc(C)nc3)cs2)C1 (racemic)  EC50 (SYBR Green growth; asexual blood-stage parasites, 3D7; 72 h): 980 ± 190 nM
Cc1c(C2(c3ccc(C(F)(F)F)nc3)CC2)c[nH]c1C(=O)NC(C)c1nc[nH]n1 (stereo not shown)  EC50 (parasite growth; 3D7): 3300 ± 280 nM

A few entries again:
CCN1CCN(Cc2ccc(Nc3nc4ccc(Oc5ccnc(NC(=O)CCN(C)C)c5)cc4n3C)cc2C(F)(F)F)CC1  EC50 (parasite growth, SYBR Green I; Dd2; 72 h): 200 ± 100 nM
O=C(NCc1nc(-c2ccc(C(F)(F)F)cc2)cs1)[C@H]1CCCN(C(=O)COCCN2CCCC2)C1  EC50 (SYBR Green growth; asexual blood-stage parasites, 3D7; 72 h): 31 ± 15 nM
